# Measured values of several laboratories.
# Compare with care: the assays were run in different laboratories. Numbers after ± are the reported error.
SMILES,test,system,conditions,how to read,measurement,value
Cc1ccc(C(=O)N(CCCN)C(c2nc3snc(C)c3c(=O)n2Cc2ccccc2)C(C)C)cc1 (stereo not drawn),pneumonia grade ≥3 (CTCAE),human patients,"intravenous, 13 mg/day",,patients with adverse event,0%
CCOc1c([C@H](C)n2nc(C)c3c(N)ncnc32)cc(Cl)c(F)c1[C@@H]1CNC(=O)C1,,"patients, monotherapy","oral, 30 mg once daily, cycle 1 day 15",,Cmin,295 ± 83.1 nM
COc1ncc(-c2nc3c(n2C(C)C)[C@H](c2ccc(Cl)cc2)N(c2cc(Cl)cn(C)c2=O)C3=O)c(OC)n1,LC-MS/MS,"human, plasma","oral, 15 mg, cycle 2 day 1, low-dose arm",,Cmax,118 ng/mL
CN1CCN(C(=O)c2ccc([C@H]3[C@@H](F)[C@@H](F)C[C@@H](F)[C@H]3F)cc2)CC1=O,liver microsome stability,mouse liver microsomes,1 µM,,hepatic clearance,14 mL/min/kg
CC(C)(C)c1ccc(O)c(CN(Cc2cc(C(C)(C)C)ccc2O)C2CCC(NC(N)=O)CC2)c1 (stereo not drawn),,human liver microsomes,"5 ng/mL, 24 h, 25 °C, short-term storage",,recovery,93.8 ± 3.81%
CCO[C@H]1CCN(Cc2c(OC)cc(C)c3[nH]ccc23)[C@H](c2ccc(C(=O)O)cc2)C1,,"human moderate hepatic impairment, plasma","oral, 200 mg single dose, median",,unbound Tmax,2.3 h
COc1ccc2c(c1)CN(C(=O)CCN1CCC(Cc3ccccc3)CC1)CC[S@@+]2[O-],telemetry,conscious male beagle dogs,"intravenous, 2 mg/kg, 4 h",,QT interval,224 ± 11 ms
CCCCCCOC(=O)NC(=N)c1ccc(NCc2nc3cc(C(=O)N(CCC(=O)OCC)c4ccccn4)ccc3n2C)cc1,,human,"oral, 75 mg, compound alone",,participants with TEAE haematoma,8.3%
N#C[C@@]1(c2ccc3c(N)ncnn23)O[C@H](CO)[C@@H](O)[C@H]1O,plasma protein binding,dog plasma,"1 µM, time not given",,recovery,99.6%
O=C(Nc1ccc(Cl)cc1)Nc1ccc(Cl)c(Cl)c1,,cow whole milk,2000 nM,reference: milk fat over skim milk,milk fat partition ratio,161
O=C(O)CCC(=O)O.[2H]C([2H])([2H])Oc1cc(C)c2[nH]ccc2c1CN1CC[C@@H](C2CC2)C[C@H]1c1ccc(C(=O)O)cc1,multiple ascending dose,healthy Chinese subjects,200 mg once daily,,subjects with reduced potassium TEAE,0%
CN1C(=O)[C@@H](NC(=O)c2nnc(Cc3ccccc3)[nH]2)COc2cccnc21,,"human, plasma","oral, 200 mg once daily, day 1, median",,Tmax,3 h
Cc1cc(C)c(CNC(=O)c2cc(Cl)c3c(c2C)O[C@@](C)([C@H]2CC[C@H](N(C)C)CC2)O3)c(=O)[nH]1,,relapsed/refractory NHL patients,"oral, 200 mg once daily, onset after cycle 1 day 1",,grade ≥3 adverse event Hypercalcemia,4.2%
CCN1/C(=C/C(C)=O)Sc2ccc(F)cc21,,cynomolgus monkey,"oral, 100 mg/kg, 0.5 h post-dose",,QTc interval (Bazett),333 ± 12 ms
COc1ccnc(C(=O)NC(CO)C(=O)O)c1O (racemic),soil adsorption,clay soil,"pH 7.6, organic carbon 1.7 %",,KFoc,358 mL/g
CCc1cc(OC)c2nccc(N3CCc4c(cc(Cn5ccnc5)cc4-c4cn(C)nc4C(F)(F)F)C3=O)c2c1,,"CD-1 mouse, male, plasma","oral, 150 mg/kg",,AUC extrapolated,0.8%
Cn1cc(-c2cn3nccc3c(-c3cnn([C@]4(CC#N)C[C@@H](C#N)C4)c3)n2)cn1,,"healthy human, plasma","400 mg once daily, day 10, multiple dose, fed, geometric mean",,Vz/F,759 L
O=C(COc1ccc(Cl)cc1)NC12CC(c3nnc([C@H]4C[C@@H](OC(F)(F)F)C4)o3)(C1)C2,item: Myalgia,"healthy humans, both sexes","oral, 100 mg, single ascending dose",reference: subjects,treatment-emergent adverse events,16.7%
CN(Cc1cccnc1)C(=O)c1ccc(C2CCCCC2)cc1,hepatocyte stability,cryopreserved mouse hepatocytes,1 µM,,hepatic clearance,72 mL/min/kg
Cc1c(C(=O)O)ccc2c3n(nc12)[C@@H]1[C@H](C3)N(CC2CC2)[C@@]2(C(=O)Nc3cc(Cl)ccc32)[C@H]1c1cccc(Cl)c1F,,"female BALB/c nude mice, SJSA-1 xenograft, plasma","oral, 2 mg/kg once daily, 7 h",,plasma concentration,1270 nM
CC(C)Cn1cnc2c(N)nc3ccccc3c21,,"C57BL/6J mice, male, solvent-treated, liver microsomes","1 µM, 45 min",,remaining compound,~7%
O=C(Cn1ccnc1)Nc1ccc(C2CCCCC2)cc1,,dog liver microsomes,1 µM,,hepatic clearance,23 mL/min/kg
CNCc1ccc(-c2[nH]c3cc(F)cc4c3c2CCNC4=O)cc1,,human patients,"oral, 600 mg twice daily, grade 2",,dysgeusia incidence,3.8%
C[C@@H](Nc1cc(F)cc(F)c1)c1cc(C(=O)N(C)C)cc2c(=O)cc(N3CCOCC3)oc12,,advanced solid tumour patients,"oral, 30 mg twice daily, continuous monotherapy",,dose interruption due to AE,50%
Cc1ccc(Sc2ccccc2N2CCNCC2)c(C)c1,item: Pollakiuria,healthy adult women,"oral, 10 mg daily, 12 days",,participants with TEAE,0%
CC(C)(C(=O)N1CCOc2c(C#N)cncc2C1)C(F)F,item: Headache,human,"oral, 10 mg, CSF pharmacokinetic cohort",,subjects with adverse event,50%
C=CC(=O)NC1CCN(c2ncc3ncnc(Nc4ccc(Oc5ccc6c(c5)ncn6C)c(C)c4)c3n2)CC1,item: faeces hard,human male,"oral, dose not given, AEs, treatment-related, on drug, CTCAE",,adverse events incidence,0%
C=CC(=O)NC1CCN(c2ncc3ncnc(Nc4ccc(Oc5ccc6c(c5)ncn6C)c(C)c4)c3n2)CC1,,"healthy male volunteers, urine and faeces","oral, 60 mg, 14C-labelled",,dose excreted unchanged,31.6%
CCCOc1ccc(NC(=O)CN2CCN(C)CC2)cc1-c1nc(CC)c(CC)c(=O)[nH]1,least-squares mean difference,healthy Chinese men,"10 mg, supine or semi-supine, together with: alcohol 0.5 g/kg",reference: compound plus placebo,maximal systolic BP decrease difference,-2.31 mmHg
COc1ccc([C@@H](O)c2cc(-c3ncnc4cc(N5CCOCC5)ccc34)c(F)cc2Cl)nn1,,locally advanced rectal cancer,"all dose levels overall, together with: capecitabine and radiotherapy",,drug-related gastrointestinal disorders,79%
Cl.[2H]C([2H])([2H])CC(=O)c1cnc(NC(=O)C2CC2)cc1Nc1cccc(-c2ncn(C([2H])([2H])[2H])n2)c1OC,,"human, fed, multiple dose","oral, 60 mg once daily, tablet, day 14, geometric mean",,Cmax,504 ng/mL
O=C(Cn1ccnc1)Nc1ccc([C@H]2[C@@H](F)[C@@H](F)C[C@@H](F)[C@H]2F)cc1,,cynomolgus liver microsomes,1 µM,,hepatic clearance,4.9 mL/min/kg
Cc1nc2ccc(F)cc2n1-c1nc(N)c(F)c(Nc2ccc(C(F)(F)F)cc2)n1,,"human patients, plasma","oral, 200 mg twice weekly, cycles 1 and 2 pooled",,dose-normalized AUC(0-inf),82.6 ng·h/mL/mg
C=CCn1c(=O)c2cnc(Nc3ccc(N4CCN(C)CC4)cc3)nc2n1-c1cccc(C(C)(C)O)n1,,human patients,"oral, 250 mg once daily, day 17, cycle 1, together with: durvalumab 1500 mg iv",,AUC(0-10 h),6.39 µM·h
CCN1CCN(Cc2ccc(NC(=O)c3ccc(C)c(NC(=O)c4cncc(-c5cccs5)c4)c3)cc2C(F)(F)F)CC1,LC-MS/MS,"C57BL/6 mouse, plasma","intraperitoneal, 30 mg/kg single dose, 0.5 h",,mean plasma concentration,716 ng/mL
Cc1ccc2c(c1)C(=O)[C@]1(O)CCN(c3ccc4nc(C)ccc4c3)C1=N2.Cl,,"rat, plasma","subcutaneous, dose not given, day 7 pre-dose, repeated daily dosing",,trough plasma concentration,0.43 µM
N#Cc1ccc2c(c1)[C@H]1CCCN(C(=O)c3ccc4[nH]cnc4c3)[C@H]1C2,,"human, male","40 mg, day 15",,DHEA-S level,4.5 µmol/L
COc1ccc2[nH]c([S+]([O-])Cc3ncc(C)c(OC)c3C)nc2c1 (stereo not drawn),,"healthy Chinese volunteers, plasma","oral, 20 mg, enteric-coated capsules, CYP2C19 intermediate metabolizers",,AUC(0-inf),804 ± 532 ng·h/mL
Cc1ccc([C@@H]2O[C@H](CO)[C@@H](O)[C@H](O)[C@H]2O)cc1Cc1ccc(-c2ccc(F)cc2)s1,,Japanese type 2 diabetes patients,"25 mg, day 6, 24 h urine collection",reference: baseline,urinary calcium excretion change,-38.4 mg
C[C@]12CC[C@@H]3c4ccc(O)cc4CC[C@H]3[C@@H]1CCC2=O,,whole cow milk,200 nM nominal,,dose fraction in skim milk,23.4%
O=C(NCCc1cccnc1)c1ccc([C@H]2[C@@H](F)[C@@H](F)C[C@@H](F)[C@H]2F)cc1,liver microsome stability,rat liver microsomes,1 µM,,hepatic clearance,48 mL/min/kg
CO[C@@H]1[C@H](O)[C@@H](CO)O[C@H]1n1c([N+](=O)[O-])nc2c(=O)[nH]c(N)nc21,"depurination, RP-HPLC",citrate-phosphate buffer 0.5 mM,"177 min, pH 2, 37 °C",,nucleoside remaining fraction,0.884
CSCC[C@H](NC(=O)[C@H](CCCCN)NC(=O)[C@H](CCCNC(=N)N)NC(=O)[C@H](CO)NC(=O)[C@H](Cc1c[nH]c2ccccc12)NC(=O)[C@H](CCCNC(=N)N)NC(=O)[C@H](CC(C)C)NC(=O)[C@@H](N)CCSC)C(=O)N1CCC[C@H]1C(=O)N[C@@H](CS)C(=O)N[C@H](C(=O)N[C@@H](CO)C(N)=O)C(C)C,"12G5 competition, SUP-T1 cells",human plasma,"20 µM, 8 h, 37 °C",,remaining activity,1 ± 0.3%
C=CC(=O)Nc1cc(Nc2nccc(-c3cn(C)c4ccccc34)n2)c(OC)cc1N(C)CCN(C)C,,human plasma,"72 h, storage stability, medium QC sample",,recovery,50.2%
NC1(C(=O)N[C@@H](CCO)c2ccc(Cl)cc2)CCN(c2nc[nH]c3nccc2-3)CC1,,metastatic CRPC patients,"dose not given, any grade, treatment-related, all doses, together with: enzalutamide 160 mg daily",,incidence of Neutropenia,13.3%
